Results collected from several papers.
A part holds a random share of what one study measured. Values joined by “and” are separate records of one study, mostly repeats; a detail may differ.
Sequence of UniProt Q9Y261 (142-269, looked up): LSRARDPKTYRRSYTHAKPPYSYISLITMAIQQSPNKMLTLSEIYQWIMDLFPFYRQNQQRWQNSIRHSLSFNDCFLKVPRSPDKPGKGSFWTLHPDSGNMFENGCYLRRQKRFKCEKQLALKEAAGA

Series 1 — cell line: HEK-293T/ACE2; tested at: 10 µM; time: 16 h; relative to: vehicle; endpoint: viability
Nc1ncnc2c1ncn2[C@@H]1O[C@H](CO)[C@@H](O)[C@H]1O: 99.8%
Clc1ccc(CCC(Cn2ccnc2)Sc2c(Cl)cccc2Cl)cc1 (centres unmarked): 97.7%
COC(=O)[C@H]1[C@H]2C[C@@H]3c4[nH]c5cc(OC)ccc5c4CCN3C[C@H]2C[C@@H](OC(=O)c2cc(OC)c(OC)c(OC)c2)[C@@H]1OC: 100%

Series 2 — technique: protein-binding microarray; molecule type: double-stranded DNA, one strand shown; medium: in vitro; tested at: 0.8 µM; setting: whole 60-bp probe, no competitor; reading: higher = stronger binding; endpoint: fluorescence intensity; shared flanks, not repeated: … GTCTTGATTCGCTTGACGCTGCTG
Target: Centromere-binding protein 1, full length, N-terminal tag (CBF1, Saccharomyces cerevisiae, UniProt P17106, residues 1-351)
Sequence of UniProt P17106 (whole entry, looked up): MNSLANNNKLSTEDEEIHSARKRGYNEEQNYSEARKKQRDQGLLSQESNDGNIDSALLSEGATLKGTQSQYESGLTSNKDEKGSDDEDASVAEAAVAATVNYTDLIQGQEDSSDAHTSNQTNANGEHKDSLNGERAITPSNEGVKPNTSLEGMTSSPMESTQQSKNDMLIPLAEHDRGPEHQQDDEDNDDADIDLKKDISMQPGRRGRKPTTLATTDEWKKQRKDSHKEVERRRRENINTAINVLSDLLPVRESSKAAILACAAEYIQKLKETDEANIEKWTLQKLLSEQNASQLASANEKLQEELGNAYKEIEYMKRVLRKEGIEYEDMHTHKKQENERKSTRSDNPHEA
GAATTACGTATTGGTGGTGTGGGTGGGGACTTTTAG: 473 a.u.
GAATCATGCTGCCGGCACGTAGTACTTGCAGCTTAG: 505 a.u.
GAACCCAAAGGGTTGCACGTTCTCTTCCGTCGATAG: 608 a.u.
GAATACACTAAAACACATGCACGCCACGGAGTATAG: 659 a.u.
TGTACGAAGCTATGTTTCGTGCATATAGTAGTTAGG: 518 a.u.
GAAGTTACCTCCAGGTGATTGCTGTCTTTATGCTAG: 537 a.u.
TGTACGAAGCTATATCACGGAGATATAGTAGTTAGG: 522 a.u.
CTATAATTAAATTATCACGGCTCATTCATTTGATTC: 569 a.u.

Series 3 — action: inhibitor; tested at: 20 µM; endpoint: inhibition
Target: Replicase polyprotein 1ab, nsp13 helicase (rep, Severe acute respiratory syndrome coronavirus 2, UniProt P0DTD1)
CCOC(=O)C(=O)Nc1cccc(OC)c1C(N)=O: 6.87%
CCOc1ccc(C(=O)OCCN(CC)CC)cc1: 3.81%
CN(C)CCN1C(=O)c2cccc3cc(N)cc(c23)C1=O: 17.4%
N#C/C(=C\c1cccn1S(=O)(=O)c1cccc([N+](=O)[O-])c1)S(=O)(=O)c1ccc(F)cc1: 8.07%
O=S1(=O)c2cccc3cccc(c23)N1CCCN1CCN(c2ccc(F)cc2)CC1: -1.29%
NC[C@H]1O[C@H](O[C@H]2[C@H](O)[C@@H](O[C@H]3O[C@H](CO)[C@@H](O)[C@H](N)[C@H]3O)[C@H](N)C[C@@H]2N)[C@H](N)C[C@@H]1O: 3.43%
CC(C)[C@@H](CN1CC[C@@](C)(c2cccc(O)c2)[C@@H](C)C1)NC(=O)[C@H]1Cc2ccc(O)cc2CN1: -1.46%
CC(=O)N1CCC[C@H]1C(=O)N[C@@H](Cc1cnc[nH]1)C(=O)N[C@@H](CO)C(=O)N[C@@H](CS)C(=O)N[C@@H](CC(N)=O)C(N)=O: 2.14%
CC(C)(Oc1ccc(Cl)cc1)C(=O)OCCOC(=O)c1cccnc1: 1.86%
COc1cccc2c1C(=O)c1c(O)c3c(c(O)c1C2=O)C[C@@](O)(C(=O)CO)C[C@@H]3O[C@H]1C[C@H](N)[C@@H](O)[C@H](C)O1: 97.5%
CCN(CCNC(=O)Nc1ccccc1Br)c1cccc(C)c1: 6.64%
CN(C)CCOC(=O)C(c1ccccc1)C1(O)CCCC1 (centres unmarked): -3.25%
COC(=O)[C@H](CC(C)C)NC(=O)c1ccc(NC[C@@H](N)CS)cc1-c1cccc2ccccc12: 16.4%
CCN(CC)C(=O)c1ccc(O)c(OC)c1: -0.39%
COc1ccc(O)c(C(C)(C)C)c1: 2.9%
O=c1c2c(c1=O)N(CCP(=O)(O)O)CCCN2: 85.8%
CCNCc1cc(C(C)(C)C)c(O)c(C(C)(C)C)c1: 3.39%
C=C(CC)C(=O)c1ccc(OCC(=O)O)c(Cl)c1Cl: 54.7%
Fc1ccc(-n2cc(CCCCN3CCC4(CC3)OCc3ccccc34)c3ccccc32)cc1: -1.46%
O=C(N[C@@H]1CC[C@@H](c2cccc(F)c2F)CN(CC(F)(F)F)C1=O)N1CCC(n2c(=O)[nH]c3ncccc32)CC1: 5.18%
Cc1ccccc1N(C)C(=O)c1ccc([S+]([O-])c2nccs2)c([N+](=O)[O-])c1 (centres unmarked): 42%
CC(C)CCC[C@@H](C)[C@H]1CC[C@H]2[C@@H]3CC=C4C[C@@H](O)CC[C@]4(C)[C@H]3CC[C@]12C: 2.34%
COCCN1CCN(Cc2ccc(-c3n[nH]c4c3C(=O)c3c(NC(=O)NN5CCOCC5)cccc3-4)cc2)CC1: 3.23%
N#Cc1c(-c2ccccc2)cc(-c2cc(Br)ccc2O)[nH]c1=O: 10.2%
CC(C)(C)c1ccc(CN2CCN(C(c3ccccc3)c3ccc(Cl)cc3)CC2)cc1 (centres unmarked): 3.51%

Series 4 — read-out: enzyme activity; action: inhibitor; tested at: 20 µM; setting: hit confirmation; endpoint: inhibition
Target: Replicase polyprotein 1ab, main protease (rep, Severe acute respiratory syndrome coronavirus 2, UniProt P0DTD1)
COc1nc2ccc(Br)cc2cc1[C@@H](c1ccccc1)[C@@](O)(CCN(C)C)c1cccc2ccccc12: 63.6% and 95.7%
O=C(O)/C(S)=C/c1ccc(I)cc1: 55.1%
CC1(C)CN2C(CS/C(=N/C3CCCCC3)NC3CCCCC3)=CSC2=N1: 1%

Series 5 — technique: RNA Bind-n-Seq; molecule type: RNA; medium: in vitro; tested at: 20 nM; setting: 6-mer, flanks averaged, single round; together with: 150 mM LiCl; relative to: input library; reading: higher = stronger binding; endpoint: 6-mer enrichment (R)
Target: TAR DNA-binding protein 43, full length, His tag (TARDBP, Homo sapiens, UniProt Q13148, residues 1-414)
GUUGGC: 1.09
GAGGAU: 1.02
GUCGAU: 0.962
GCCUGA: 0.922
CGUUAG: 0.888
CUAGCC: 0.895
AGUCAA: 0.816
CCGCCC: 1.13

Mixed results — technique: protein-binding microarray; molecule type: hairpin DNA; medium: in vitro; tested at: not given; relative to: not given; reading: higher = stronger binding
Setting: whole hairpin DNA, median over replicate spots
ATF1 full length: Cyclic AMP-dependent transcription factor ATF-1, full length (ATF1, Homo sapiens, UniProt P18846, residues 1-271)
Sequence of UniProt P18846 (whole entry, looked up): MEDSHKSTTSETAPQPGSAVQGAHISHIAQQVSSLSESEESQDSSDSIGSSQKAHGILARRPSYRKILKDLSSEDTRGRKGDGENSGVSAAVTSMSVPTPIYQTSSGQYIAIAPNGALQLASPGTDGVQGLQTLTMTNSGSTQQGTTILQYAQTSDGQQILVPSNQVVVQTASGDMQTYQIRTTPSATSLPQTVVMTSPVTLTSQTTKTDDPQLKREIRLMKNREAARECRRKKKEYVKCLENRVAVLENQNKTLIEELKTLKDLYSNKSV
GAGGCCGACGACGTCGTGCCTCCTGGCACGACGTCGTCGGCCTCACACTC (5mC at 9 12 15 29 35)  median fluorescence (ATF1 full length): 3420 a.u.
GAGGCCATGTCGCCAACGCCTCCTGGCGTTGGCGACATGGCCTCACACTC  median fluorescence (Hepatocyte nuclear factor 3-beta, forkhead domain (FOXA2, Homo sapiens, UniProt Q9Y261, residues 142-269)): 3390 a.u.
GAGGCCGACGACGTCGTGCCTCCTGGCACGACGTCGTCGGCCTCACACTC (5mC at 9 29 35)  median fluorescence (ATF1 full length): 5210 a.u.

Excerpt of the above (series 3):
CCNCc1cc(C(C)(C)C)c(O)c(C(C)(C)C)c1: 3.39%
CC(C)(C)c1ccc(CN2CCN(C(c3ccccc3)c3ccc(Cl)cc3)CC2)cc1 (centres unmarked): 3.51%
O=C(N[C@@H]1CC[C@@H](c2cccc(F)c2F)CN(CC(F)(F)F)C1=O)N1CCC(n2c(=O)[nH]c3ncccc32)CC1: 5.18%
COc1ccc(O)c(C(C)(C)C)c1: 2.9%
COc1cccc2c1C(=O)c1c(O)c3c(c(O)c1C2=O)C[C@@](O)(C(=O)CO)C[C@@H]3O[C@H]1C[C@H](N)[C@@H](O)[C@H](C)O1: 97.5%
CC(=O)N1CCC[C@H]1C(=O)N[C@@H](Cc1cnc[nH]1)C(=O)N[C@@H](CO)C(=O)N[C@@H](CS)C(=O)N[C@@H](CC(N)=O)C(N)=O: 2.14%
C=C(CC)C(=O)c1ccc(OCC(=O)O)c(Cl)c1Cl: 54.7%
